Measured values from different studies.
Each line is one published result; not all experiments were run side by side. Values joined by “and” are separate records of one study, mostly repeats; a detail may differ. ± marks the error that the study gave.
HTR7: 5-hydroxytryptamine receptor 7 (HTR7, Homo sapiens, UniProt P34969)
RFWD3: RFWD3 (Homo sapiens, UniProt Q6PCD5)
HTR2A: 5-hydroxytryptamine receptor 2A (HTR2A, Homo sapiens, UniProt P28223)

| Structure (SMILES) | target | test | test system | conditions | scale | measurement | result |
| --- | --- | --- | --- | --- | --- | --- | --- |
| COc1cc(C(=O)NS(=O)(=O)c2ccccc2C)ccc1Cc1cn(C)c2ccc(NC(=O)OC3CCCC3)cc12 | LRRC8A/LRRC8C (Homo sapiens, UniProt Q8IWT6+Q8TDW0, E6A) | whole-cell patch clamp | HCT116 LRRC8-/- transfected | at -100 mV |  | Hill coefficient | 1.23 |
| O=C1N[C@H](c2cncc(C#Cc3ccccc3)c2)[C@@H](c2ccccc2Cl)O1 | Metabotropic glutamate receptor 5 (Macaca mulatta, UniProt A0ACM8QRY8) | PET | rhesus monkey | intravenous, 1.0 mg/kg |  | receptor occupancy | 94.4 ± 0.4% |
| NC(=O)C1=CN([C@@H]2O[C@H](COP(=O)(O)OP(=O)(O)OC[C@H]3O[C@@H](n4cnc5c(N)ncnc54)[C@H](OP(=O)(O)O)[C@@H]3O)[C@@H](O)[C@H]2O)C=CC1 | FSP1, ancestral | substrate |  | co-substrate fixed |  | Km | 29.3 ± 6.26 µM |
| CN1CCN(c2cc(-c3ccncc3)c(-c3ccc4ccccc4c3)nn2)CC1 | Thromboxane A2 receptor (TBXA2R, Homo sapiens, UniProt P21731) | agonist, FLIPR |  | 12.5 µM |  | activation | -2.9% |
| [H]/N=C(/N)NCC(=O)O | Sodium- and chloride-dependent taurine transporter (SLC6A6, Homo sapiens, UniProt P31641, L306A) | binding, microscale thermophoresis |  | 31.3 µM, room temperature, added: 50 nM labelled protein | higher = more binding | normalised MST signal | 0.0233 |
| CC[C@H](C)[C@@H]1NC(=O)[C@H](C)NC(=O)[C@H]([C@@H](C)CC)NC(=O)[C@H](CCC(N)=O)NC(=O)[C@H](C)NC(=O)[C@H](CCCNC(=N)N)NC(=O)[C@H](C(C)C)NC(=O)[C@H](CC(C)C)NC(=O)[C@H](CCC(=O)O)NC(=O)[C@H](CCCNC(=N)N)NC(=O)CNC(=O)[C@@H](NC(=O)[C@H](CC(C)C)NC(=O)[C@H](CCCCN)NC(=O)[C@@H](NC(=O)[C@@H](NC(=O)[C@H](CCC(=O)O)NC(=O)[C@H](CCC(=O)O)NC(=O)[C@H](CCSC)NC(=O)[C@H](Cc2c[nH]c3ccccc23)NC(=O)[C@H](CO)NC(=O)[C@@H](N)CC(=O)O)C(C)C)[C@@H](C)CC)CSSC[C@@H]2NC(=O)[C@@H](NC(=O)[C@H](CCCCN)NC(=O)[C@H](CC(N)=O)NC(=O)[C@H](C)NC(=O)[C@H](CC(C)C)NC(=O)[C@H](C)NC(=O)[C@H](CO)NC(=O)[C@H](Cc3ccc(O)cc3)NC(=O)[C@H](CC(C)C)NC(=O)[C@H](CCC(N)=O)NC(=O)c3ccc(-c4c5ccc(=[N+](C)C)cc-5oc5cc(N(C)C)ccc45)c(C(=O)[O-])c3)CSSC[C@H](NC(=O)CNC(=O)[C@H](C(C)C)NC(=O)[C@H](Cc3c[nH]cn3)NC2=O)C(=O)N[C@@H]([C@@H](C)O)C(=O)N[C@@H](CCCCN)C(=O)N[C@@H](CCCNC(=N)N)C(=O)N[C@@H](CO)C(=O)N[C@@H](CC(C)C)C(=O)N[C@@H](C)C(=O)N[C@@H](CCCNC(=N)N)C(=O)N[C@@H](Cc2ccccc2)C(=O)N[C@H](C(=O)O)CSSC[C@@H](C(=O)NCC(=O)N[C@@H](CCSC)C(=O)N[C@@H](CO)C(=O)N[C@H](C(=O)N[C@@H](Cc2c[nH]c3ccccc23)C(=O)N[C@@H](CO)C(=O)O)[C@@H](C)O)NC1=O | Relaxin receptor 1 (RXFP1, Homo sapiens, UniProt Q9HBX9, F76A/Y80A) | NanoBRET dissociation |  | infinite dilution, added: 1 µM relaxin |  | koff fast phase | 0.00795 s⁻¹ |
| CCCCC[S+]([O-])c1n[nH]c(N)n1 (centres unmarked) | WD repeat-containing protein 55 (WDR55, Homo sapiens, UniProt Q9H6Y2) | binding, affinity selection mass spectrometry |  |  | reference: other proteins in batch | log fold enrichment | 0.129 |
| Nc1ncnc2c1ncn2[C@@H]1O[C@H](COP(=O)(O)OP(=O)(O)OP(=O)(O)O)[C@@H](O)[C@H]1O | P2X purinoceptor 7 (P2rx7, Rattus norvegicus, UniProt Q64663, I214G) | ion current, agonist, two-electrode voltage clamp | Xenopus laevis oocytes | 3.7 µM | reference: highest concentration response | normalized current | 0 |
| Cc1ccc(N2CC(C(N)=O)CC2=O)cc1 (centres unmarked) | Baculoviral IAP repeat-containing protein 3, BIR1 domain (BIRC3, Homo sapiens, UniProt Q13489) | binding, affinity selection mass spectrometry |  |  | reference: other proteins in batch | log fold enrichment | 0.0527 |
| COc1ccccc1-c1n[nH]c2nc(N[C@H]3CC[C@H](NS(=O)(=O)CCCOCCOCCNC(=O)OC(C)(C)C)CC3)ncc12 | mitogen-activated protein kinase 9 (Leishmania donovani, UniProt A0A3Q8IB74) | resin binding, SILAC competition pull-down, item: MPK9 | Leishmania donovani extract | 10 µM | reference: heavy over light | log2 fold change | 3.12 |
| c1ccc(OC[C@@H]2CN(CCN3CCc4ccccc43)CCO2)cc1 | HTR7 | radioligand binding |  | concentration not given, added: [3H]LSD |  | inhibition | 74.4% |
| C=CC(=O)N1CCC(COCC(=O)N2CCN(c3nc(-c4cnc(N)nc4C(F)F)nc(N4CCOC[C@@H]4C)n3)CC2)CC1 | Serine/threonine-protein kinase D3 (PRKD3, Homo sapiens, UniProt O94806) | KINOMEscan |  | 1 µM |  | remaining binding | 100% |
| CNc1ncc2c(/C=C/C(=O)N3CCC(OC)CC3)nn(Cc3cccc(C(F)(F)F)c3)c2n1 | MAP kinase-activated protein kinase 3 (MAPKAPK3, Homo sapiens, UniProt Q16644) | kinase activity, inhibitor |  | 1 µM | reference: untreated control | remaining activity | 85% |
| COCCC(=O)N1CCC(Oc2ccccc2)C1 (centres unmarked) | RFWD3 | binding, affinity selection mass spectrometry |  |  | reference: other proteins in batch | fold enrichment | 0.868 |
| OCc1ccc(-c2nn(Cc3ccncc3)c3ccccc23)o1 | Sulfotransferase 1A1 (SULT1A1, Homo sapiens, UniProt P50225) | substrate, colorimetric |  | 100 µM | reference: benzyl alcohol | relative sulfonation activity | < 2 fold |
| CCC1(O)CCCN(C(=O)c2ccc(-c3ccc(F)c(NC(=O)CCl)c3)cc2)C1 (centres unmarked) | DNA dC->dU-editing enzyme APOBEC-3B, C-terminal domain (Homo sapiens, UniProt Q9UH17) | covalent modifier, intact protein mass spectrometry, item: adduct +26104 Da |  | 250 µM, 1 h, 10-fold molar excess |  | protein adduct | 0% |
| [Na+] | Sodium- and chloride-dependent neutral and basic amino acid transporter B(0+), apo form (Slc6a14, Mus musculus, UniProt Q9JMA9) | pre-steady-state charge movement | Xenopus oocytes |  |  | Hill coefficient | 1.9 |
| NC(=O)CCC(=O)O | Uncharacterized protein (Pelagibacter ubique, UniProt Q4FKX4) | differential scanning fluorimetry | Candidatus Pelagibacter ubique | in-house screen |  | thermal shift | 3.52 °C |
| CCS(=O)(=O)N1CC(CC#N)(n2cc(-c3ncnc4[nH]ccc34)cn2)C1 | Alpha-1-acid glycoprotein 1 (ORM1, Homo sapiens, UniProt P02763) |  |  | added: Ca^2+ |  | change in binding constant | 34.5% |

| Structure (SMILES) | target | test | test system | conditions | scale | measurement | result |
| --- | --- | --- | --- | --- | --- | --- | --- |
| O=C(CN1CCO[C@H](COc2cccnc2)C1)N1CCc2ccccc21 | HTR2A | radioligand binding |  | concentration not given, added: [3H]ketanserin |  | inhibition | -7% |
| COc1cc(-c2cncc3c2CN(C)Cc2cc(N4CCNCC4)ccc2-3)cc(OC)c1OC | Calcium/calmodulin-dependent protein kinase type II subunit beta (CAMK2B, Homo sapiens, UniProt Q13554) | kinase activity |  | 1 µM, human enzyme, added: ATP 10 µM | reference: DMSO control | remaining activity | 106% |
| O=C(O)[C@@H]1CCCN1c1ncnc2[nH]cnc12 (racemic) | E3 ubiquitin-protein ligase CHIP (STUB1, Homo sapiens, UniProt Q9UNE7) | binding, affinity selection mass spectrometry |  |  | reference: other proteins in batch | log fold enrichment | -0.0285 |
| O=C(O)c1ccc(Nc2ncc3c(n2)-c2ccc(Cl)cc2C(c2c(F)cccc2F)=NC3)cc1 | HIPK1(h) | kinase activity |  | 1 µM |  | remaining activity | 117% |
| C[C@]12C[C@H](O)[C@H]3[C@@H](CCC4=CC(=O)CC[C@@]43C)[C@@H]1CC[C@@H]2C(=O)CO | Cytochrome P450 11B2, mitochondrial (CYP11B2, Homo sapiens, UniProt P19099) |  | nanodiscs | 25 °C, fast phase |  | koff | 8.6 ± 0.4 s⁻¹ |
| Nc1ccc(C(=O)O)cc1 | BEST1, with wild-type BEST1 (Homo sapiens, UniProt O76090, R218H) | ion current, whole-cell patch clamp | HEK293 co-expressing mutant and wild-type | concentration not given, voltage -80 mV |  | current density | -8.13 pA/pF and -20.2 pA/pF and -18.4 pA/pF and -10.4 pA/pF and -3.21 pA/pF and -28.4 pA/pF and -12.5 pA/pF and -3.66 pA/pF |
| Cc1cc(OCC(=O)NC(C)C)cc(C)c1Cl | Sodium-dependent neutral amino acid transporter B(0)AT1 (SLC6A19, Homo sapiens, UniProt Q695T7) | inhibitor, FLIPR membrane potential | CHO-BC cells | 30 µM, added: L-leucine 1.5 mM | reference: cinromide | activity | 38 ± 14% |
| C[C@]12CC[C@@H]3c4ccc(O)cc4CC[C@H]3[C@@H]1CC[C@@H]2O | UDP-glucuronosyltransferase 1A1 (UGT1A1, Homo sapiens, UniProt P22309) | glucuronidation, substrate | human liver microsomes |  |  | Vmax | 74 ± 3 pmol/min/mg protein |
| Oc1ccc(/C=C/c2cc(O)cc(O)c2)cc1 | O-methyltransferase (Sorghum bicolor, UniProt A0A1B6PFV1) |  |  | concentration not given, added: MET+ |  | ΔH of binding | -12.5 ± 0.196 kcal/mol |
| C[S+]([O-])c1ccc(-c2nc(-c3ccncc3)c(-c3ccc(F)cc3)[nH]2)cc1 (centres unmarked) | Mitogen-activated protein kinase 12 (MAPK12, Homo sapiens, UniProt P53778) | inhibitor, ADP-Glo |  | concentration not given |  | kinase activity | no effect |
| O=S(=O)(O)C1CCNCC1 | Sodium- and chloride-dependent taurine transporter (SLC6A6, Homo sapiens, UniProt P31641, Y138A) | binding, microscale thermophoresis |  | 37.6 nM, fitted curve | higher = more binding | fraction bound | 0 |
| N#Cc1ccn2c(-c3ccncc3)c(-c3ccc(F)cc3)nc2c1 | Protein kinase C-like 1 (Candida albicans, UniProt P43057) | kinase binding, competitor, MIB/MS competition, item: PKC1 | Candida albicans cell lysate | 10 µM | reference: DMSO | log2 fold change | -0.283 |
| Cc1ccnc(OC[C@H]2CN(CC(=O)N3CCc4ccccc43)CCO2)c1 | HTR7 | radioligand binding |  | concentration not given, added: [3H]LSD |  | inhibition | -18.9% |
| CC1(C)CC2(C)OC(=O)NC2(C)c2ccccc21 (centres unmarked) | RFWD3 | binding, affinity selection mass spectrometry |  |  | reference: other proteins in batch | log fold enrichment | 0.0681 |
| Cc1nc(CSc2nc(SCc3ccc(C(C)C)cc3)nc(=O)[nH]2)cs1 | DNA topoisomerase 2-alpha (TOP2A, Homo sapiens, UniProt P11388) | DNA relaxation |  | 500 µM, replicate 2 |  | relaxed DNA | 0% |
| Cc1ncccc1OC[C@@H]1CN(CCN2CCc3ccccc32)CCO1 | HTR2A | radioligand binding |  | concentration not given, added: [3H]ketanserin |  | inhibition | 33.9% |
| Nc1nc2c(ncn2[C@@H]2O[C@H](COP(=O)(O)O)[C@@H](O)[C@H]2O)c(=O)[nH]1 | GUK1 (Homo sapiens, UniProt Q16774) | enzyme activity, NADH-coupled |  | 15.62 µM, added: KCl 150 mM |  | reaction velocity | 0.0328 µM/s and 0.0462 µM/s and 0.0302 µM/s |
| O=C(NC1CCC1)c1ccc2nc(-c3cccc(NS(=O)(=O)NCCN4CCCCC4)c3)cn2c1 | 1-phosphatidylinositol 3-phosphate 5-kinase (PIKFYVE, Homo sapiens, UniProt Q9Y2I7) | enzyme activity |  | 10 µM |  | remaining activity | 82% |
| CC(=O)O[C@H]1C(=O)[C@@]2(C)[C@H]([C@H](OC(=O)c3ccccc3)[C@]3(O)C[C@H](OC(=O)[C@H](O)[C@@H](NC(=O)c4ccccc4)c4ccccc4)C(C)=C1C3(C)C)[C@]1(OC(C)=O)CO[C@@H]1C[C@@H]2O | Tubulin alpha-1A/beta chain (Sus scrofa, UniProt P02550+P02554) | inducer |  | 10 µM, 37 °C |  | tubulin polymerization time | ≤ 20 min |

A few entries again:
| Structure (SMILES) | target | test | test system | conditions | scale | measurement | result |
| --- | --- | --- | --- | --- | --- | --- | --- |
| COc1cc(-c2cncc3c2CN(C)Cc2cc(N4CCNCC4)ccc2-3)cc(OC)c1OC | Calcium/calmodulin-dependent protein kinase type II subunit beta (CAMK2B, Homo sapiens, UniProt Q13554) | kinase activity |  | 1 µM, human enzyme, added: ATP 10 µM | reference: DMSO control | remaining activity | 106% |
| Cc1ccc(N2CC(C(N)=O)CC2=O)cc1 (centres unmarked) | Baculoviral IAP repeat-containing protein 3, BIR1 domain (BIRC3, Homo sapiens, UniProt Q13489) | binding, affinity selection mass spectrometry |  |  | reference: other proteins in batch | log fold enrichment | 0.0527 |
| [H]/N=C(/N)NCC(=O)O | Sodium- and chloride-dependent taurine transporter (SLC6A6, Homo sapiens, UniProt P31641, L306A) | binding, microscale thermophoresis |  | 31.3 µM, room temperature, added: 50 nM labelled protein | higher = more binding | normalised MST signal | 0.0233 |
| OCc1ccc(-c2nn(Cc3ccncc3)c3ccccc23)o1 | Sulfotransferase 1A1 (SULT1A1, Homo sapiens, UniProt P50225) | substrate, colorimetric |  | 100 µM | reference: benzyl alcohol | relative sulfonation activity | < 2 fold |
